Assay results of several laboratories.
Each numbered part is a random draw from the data of one study; scales do not carry over between parts.

Set 1 — method: RNA Bind-n-Seq; molecule type: RNA; medium: in vitro; tested at: 200 nM; setting: whole 134-nt RNA, ends assumed; with: 150 mM LiCl; baseline: input library; direction: higher = stronger binding; all molecules: 7-deaza-guanosine replaces G
Target: Fragile X messenger ribonucleoprotein 1, C-terminal low-complexity region (Fmr1, Mus musculus, UniProt P35922)
All sequences stand within: GGGAGUUCUACAGUCCGACGAUC … UGGAAUUCUCGGGUGUCAAGG
With `CCUGUGCUACACAUCGUAUGUACCGAAUCGGGUUUUUUGGGUUUUUUGGGUUUUUUGGGGAAAGUAUUAUGUUACGCCGUUCGGAUCUGC` the log2 enrichment was -1.5.
For `AGUCCUGUGCUACACAUCGUAUGUACCGAAUCGGGGUGGGGUUUUUGGGGAAAGGGGAAAGUAUUAUGUUACGCCGUUCGGAUCUGCACU`, the log2 enrichment was -0.406.
`GUCCUGUGCUACACAUCGUAUGUACCGAAUCAAAUUUAAAUUUUUUUAAAUUUUUAAAAAAGUAUUAUGUUACGCCGUUCGGAUCUGCAC` has a log2 enrichment of -2.91.
`UGGCCUUGGUGGCAUGCGGGGAGGAAGAGGUGGCCUCAUGGAUCGUGGUGGUCCCGGUGGAAUGUUCAGAGGUGGCCGUGGUGGAGACAG` gave a log2 enrichment of 0.772.
`UGGCCCUGGUGGCAUGCGGGGAGGAAGAGGUGGCCUCAUGGAUCGUGGUGGUCCCGGUAGAAUGUUCAGAGGUGGCCGUGGUGGAGACAG` has a log2 enrichment of 0.176.
`GCAGGAAGUAAAAACAAAGGGAAAUGCUUCGGAUAGUGGCAGGGGUGGGGGUUGCUAAGGAAAGGGUGGGAUGGGAGUGGGUAAAGAGUU` gave a log2 enrichment of 1.14.
`CUGUGCUACACAUCGUAUGUACCGAAUCAAACCCCCCCAAAUUUUUUUAAACCCCCCCAAAAAAGUAUUAUGUUACGCCGUUCGGAUCUG` gave a log2 enrichment of 1.29.
`UUGCAGAUGAGCUUAUGGGGGGCAAUCUUAAAAAGUCCACAGCAGAUGCAUCCGGCUCGAGGGGCCAUCAGCUUUGAAUAAAUGCUUGUU` has a log2 enrichment of -1.32.

Set 2 — method: protein-binding microarray; molecule type: double-stranded DNA, one strand shown; medium: in vitro; tested at: 250 nM; setting: 60-bp whole probe; with: salmon DNA 0.4 mg/ml; baseline: random background probes; direction: higher = stronger binding; all sequences stand within: GCCTAGCAC … GTCTTGATTCGCTTGACGCTGCTG
Target: Interferon regulatory factor 5, full length, phosphomimetic (IRF5, Homo sapiens, UniProt Q13568-2, residues 1-514, K96S/S451D/S453D/S456D/S462D)
For `TCAGGGCTACCTCTCTTACTGTGCTAG`, the log fluorescence was -0.458 z-score.
The log fluorescence of `TTTTTTTTTTGTATTTTTGAGTGCTAG` is reported as 1.49 z-score.
With `TTAGGTATCGGGTATCGGTAAGTGCTA` the log fluorescence was 6.42 z-score.
The log fluorescence of `TCAATTATTGTTTCCTCACTGTGCTAG` is reported as 1.23 z-score.
`GACGAACTGGGGTTTCTAGACGTGCTA` gave a log fluorescence of -0.132 z-score.
With `GACGGTCACCTTTTCCTGACGTGCTAG` the log fluorescence was 0.244 z-score.
With `GACGGTATCCGTTTCGGGACGTGCTAG` the log fluorescence was 2.83 z-score.
For `GACTGTTTCGGGTTTCGGGACGTGCTA`, the log fluorescence was 8.45 z-score.
For `TCATGGATGTGTTTTAAACTGTGCTAG`, the log fluorescence was -0.208 z-score.
With `GACGAGATCAGACTGGAGACGTGCTAG` the log fluorescence was -0.221 z-score.
With `GACGATTTCGGTTTTCGAGACGTGCTA` the log fluorescence was 7.44 z-score.
For `GACGCTTTCGGTTTCGGGACGTGCTAG`, the log fluorescence was 11 z-score.
With `TTAGTTATCCTACTGCTTTAGTGCTAG` the log fluorescence was 0.273 z-score.
For `GACGAACTGGGGACTGGAGACGTGCTA`, the log fluorescence was -0.688 z-score.
The log fluorescence of `GACGGACTGGGGACTGGGGACGTGCTA` is reported as -0.453 z-score.
For `GACCGTATCGACTATCGGGACGTGCTA`, the log fluorescence was 3.93 z-score.
For `TTAGGTTTCCTCATCCTTTAGTGCTAG`, the log fluorescence was 0.5 z-score.
`GTCGGTTCCGGTTTCGGGACGTGCTAG` has a log fluorescence of 5.7 z-score.
`TTAGGACTGGGCCTGGGTTAGTGCTAG` gave a log fluorescence of -0.354 z-score.

Set 3 — method: protein binding microarray; molecule type: double-stranded DNA, one strand shown; medium: in vitro; tested at: not given; baseline: not given; direction: higher = stronger binding
Target: Histone acetyltransferase KAT6A, winged helix 1, GST fusion (KAT6A, Homo sapiens, UniProt Q92794, residues 1-85)
Setting: 8-mer, flanks averaged, mean of 2 arrays, mostly near background
Residues (chain): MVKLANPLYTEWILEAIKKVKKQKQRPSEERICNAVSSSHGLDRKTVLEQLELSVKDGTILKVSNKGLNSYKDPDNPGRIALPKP
The E-score of `ATTGCGGA` is reported as 0.131.
The E-score of `GGTTATCA` is reported as -0.123.
For `CCACATAC`, the E-score was -0.187.
`GCGTCACA` has an E-score of 0.0406.
With `ACCTGTTC` the E-score was -0.25.
For `TAACCGTA`, the E-score was 0.247.
`AGCGGCAC` gave an E-score of 0.368.
`ATATAGTC` gave an E-score of -0.046.
With `GTGATCCA` the E-score was -0.0995.
For `CTCCGCGA`, the E-score was 0.0913.
`AGACACGA` has an E-score of -0.032.
`AGAAGCAT` has an E-score of -0.0712.
With `AGTATCAA` the E-score was -0.15.
With `GAATTACA` the E-score was -0.109.
The E-score of `AAAGACCT` is reported as -0.00169.
The E-score of `CGCCCAAA` is reported as -0.0239.
`AATGCGTC` has an E-score of 0.164.
`CACGGATA` gave an E-score of 0.151.

Set 4 — method: RNA Bind-n-Seq; molecule type: RNA; medium: in vitro; tested at: 365 nM; baseline: no-protein control; direction: higher = stronger binding
Target: RNA binding protein fox-1 homolog 2, RRM domain, GST-SBP tag (RBFOX2, Homo sapiens, UniProt O43251-10, residues 100-194)
Setting: natural RNA segment, single round, ends assumed
All sequences stand within: GGGAGUUCUACAGUCCGACGAUC … UGGAAUUCUCGGGUGCCAA
Target sequence (chain): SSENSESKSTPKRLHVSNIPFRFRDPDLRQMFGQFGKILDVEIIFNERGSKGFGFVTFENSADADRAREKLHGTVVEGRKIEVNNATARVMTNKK
`GCCGCAGGAUAAAGAAAAUGAUAAACCCACAAAGUGCAUAUUUCAAAUAGCAUAUAUCUGAAAUCGUAUGUCUGUGCAGGUUUAACUGCUGCAUACAGCGGGCACAGAUG` — result for “RBNS enrichment (R)”: 0.25.
`UCUCCUUUGGUAGCAGCUCCCUGCCUCCAGGGCUUCCGCCACCAGCGUCUCUGCUGUGUUGCGCAGUGCAGUGGGGUGCAAGGGCUUUGUUUCUGCCUGCCUGAAAGAGA`: “RBNS enrichment (R)” 0.274.
For `UAUAAAAACAUGUGCUAAAGCUCUGUCCUCUGUUAGAGGUGCCUUUUAGGAAUACGGGGAGUGAAGGAAGGCCGGCAGGCAUCUCCAUGCAACUAGAUGGUUUGUUUGUU`, “RBNS enrichment (R)” read 0.598.
Under “RBNS enrichment (R)”, `UAAAAACUAGUAGGCUGUGGAGUGCGCUUCCUGUUUGUGUCAUCUGGUCGUAGAACCUUUUCCAAACAGAAGCAUCUGCCUUUGGCUGUUCUGUGACCUUUGAAGCCAGU` is recorded as 0.365.
`ACUGUUAUGUUUGUAUAAUAGAACAGUAAUCAUUUAUUAUAAUCUAGGCAAGUUGUAAAUAAAUUCAUAAUUCAAACAGCCAGUAUAUAUGCAUAUAUGAGUGUUAUAUU`: “RBNS enrichment (R)” 0.605.
Under “RBNS enrichment (R)”, `UUGAGUGUGAAUGCAGCAGGCUCUCUUGUUUCCGAGGUGCUGCUUUUGCAGGUGACCUGGUUACUUAGCUAGGAUUGGUGAUUUGUACUGCUUUAUGGUCAUUUGAAGGG` is recorded as 0.996.
Under “RBNS enrichment (R)”, `GGCCUUGGGACUUCACAUCCCCCAGCACACAAGCCUCACCACCCCCUGCCAUCCCCCCUCCAUUGCUUGUUCCAGCAUCUUGGUGAAAGGGGCAUCAGCUCUGGUGUCCC` is recorded as 1.6.
`CCCACACUCCCUUCCAGGCCGUGGCCUUCGCUUCCUCAUUAGAAUCAGGAGAGUGAGGCACAGUGUCCAUCAUGCCAUUUAAUCUUGUGCCUGCCCUUUCCAGCCUCUUC` — result for “RBNS enrichment (R)”: 0.41.

Repeated from above (set 4):
`ACUGUUAUGUUUGUAUAAUAGAACAGUAAUCAUUUAUUAUAAUCUAGGCAAGUUGUAAAUAAAUUCAUAAUUCAAACAGCCAGUAUAUAUGCAUAUAUGAGUGUUAUAUU`: “RBNS enrichment (R)” 0.605.
For `UAUAAAAACAUGUGCUAAAGCUCUGUCCUCUGUUAGAGGUGCCUUUUAGGAAUACGGGGAGUGAAGGAAGGCCGGCAGGCAUCUCCAUGCAACUAGAUGGUUUGUUUGUU`, “RBNS enrichment (R)” read 0.598.
Under “RBNS enrichment (R)”, `UUGAGUGUGAAUGCAGCAGGCUCUCUUGUUUCCGAGGUGCUGCUUUUGCAGGUGACCUGGUUACUUAGCUAGGAUUGGUGAUUUGUACUGCUUUAUGGUCAUUUGAAGGG` is recorded as 0.996.
Under “RBNS enrichment (R)”, `GGCCUUGGGACUUCACAUCCCCCAGCACACAAGCCUCACCACCCCCUGCCAUCCCCCCUCCAUUGCUUGUUCCAGCAUCUUGGUGAAAGGGGCAUCAGCUCUGGUGUCCC` is recorded as 1.6.
